Published values pooled from the literature.
Lines come from different studies, so protocols differ. Values joined by “and” are separate records of one study, mostly repeats; a detail may differ. Numbers after ± are the reported error. Values after ≈ are worked out from the molar mass of the structure shown.

| SMILES | target or system | assay | test system | setting | scale | endpoint | result |
| --- | --- | --- | --- | --- | --- | --- | --- |
| O=S(=O)(c1ccc(-c2ccc3ncnc(Nc4ccc(O)c(Cl)c4)c3c2)cc1)N1CCOCC1 | Trypanosoma cruzi | intracellular amastigote growth, β-galactosidase CPRG | 3T3, Tulahuen, β-galactosidase-expressing | 10 µM, 96 h |  | inhibition | 14% |
| NCCCO.O=C(O)C(Cl)Cl | Chenopodium album | herbicidal activity |  | 15 mg/mL, 21 days, post-emergence greenhouse |  | inhibition | 78% |
| CC(=O)O[C@@H]1C[C@@H](C)O[C@H]2O[C@@H]3C[C@@H]4CC[C@@H]5[C@H](CC[C@]6(C)[C@@H](C7=CC(=O)OC7)CC[C@]56O)[C@@]4(C=O)C[C@H]3O[C@]21O | Schistosoma mansoni | viability, microscopic viability score | adult worms | 72 h |  | IC50 | 0.34 µM and 0.42 µM |
| C[C@@H](O)[C@H](NC(=O)[C@H](CS)NC(=O)[C@H](Cc1ccccc1)NC(=O)[C@H](CS)NC(=O)[C@H](CCCNC(=N)N)NC(=O)[C@H](CCCNC(=N)N)NC(=O)[C@H](CCCNC(=N)N)NC(=O)[C@H](Cc1ccccc1)NC(=O)CNC(=O)[C@H](CCCNC(=N)N)NC(=O)[C@H](CS)NC(=O)[C@H](CCCNC(=N)N)NC(=O)CNC(=O)CN)C(=O)N[C@H](C(=O)N[C@@H](Cc1c[nH]cn1)C(=O)N[C@@H](CS)C(=O)O)[C@@H](C)O | Botrytis cinerea | grey mould lesion size | detached rose petals | 48 h post-inoculation |  | lowest effective concentration | 3 µM |
| Cc1cc(Cl)cc(S(C)=NC#N)c1NC(=O)c1cc(Br)nn1-c1ncccc1Cl (stereo not drawn) | Spodoptera litura | leaf-dip | third instar larvae | 12.5 ppm, 96 h |  | mortality | 100% |
| CC[C@H](C)[C@@H]1NC(=O)[C@H](CO)NC(=O)C(C)(CCCCN)NC(=O)[C@@H]2CSSC[C@@H](C(=O)N[C@@H](Cc3ccc(O)cc3)C(N)=O)NC(=O)[C@H](CCCCN)NC(=O)[C@@H]3CSSC[C@H](NC(=O)[C@H](CCCNC(=N)N)NC(=O)C(C)(CC(C)C)NC(=O)[C@H](CC(=O)O)NC(=O)[C@H](CC(=O)O)NC(=O)[C@H](CCC(=O)O)NC(=O)[C@H](CC(N)=O)NC(=O)[C@H](Cc4c[nH]c5ccccc45)NC(=O)C(C)(CC)NC(=O)CNC(=O)[C@H](CC(N)=O)NC(=O)[C@@H](NC(=O)CNC(=O)[C@H](Cc4ccccc4)NC(=O)CN)CSSC[C@H](NC(=O)[C@H](Cc4ccc(O)cc4)NC(=O)CNC(=O)CNC(=O)[C@H](CCCCN)NC(=O)[C@H](Cc4ccc(O)cc4)NC(=O)[C@H]4CCCN4C(=O)[C@@H]4CCCN4C1=O)C(=O)N[C@@H](C)C(=O)N[C@@H](CCCCN)C(=O)N1CCC[C@@H]1C(=O)NCC(=O)N[C@@H](Cc1ccccc1)C(=O)N[C@@H](C(C)C)C(=O)N3)C(=O)N[C@@H](Cc1c[nH]cn1)C(=O)NC(C)(C)C(=O)N[C@@H](Cc1c[nH]cn1)C(=O)N2 (stereo partly drawn) | Streptococcus pneumoniae |  | BS-444 | 24 h, 37 °C, 99.9% killing |  | MBC | 2 µM (≈ 8.92 µg/mL) |
| COc1ccc(C2=[N+]([O-])c3ccccc3N3CCCN=C23)cc1 | Clostridioides difficile | microbial growth |  |  |  | MIC50 | 4 µg/mL (≈ 13 µM) |
| CN(C)c1nc(NCc2cc(Cl)c(F)cc2F)c(/N=N/c2ccc(Cl)cc2)c(N(C)C)n1 | Ostrinia furnacalis | leaf dipping |  | 500 mg/L, 96 h |  | mortality | 100% |
| CC(C)[C@H]1NC(=O)[C@H](Cc2ccccc2)NC(=O)[C@@H](C(C)C)NC(=O)[C@@H](C)NC(=O)[C@H](C)NC(=O)[C@@H](Cc2c(-c3ccc(-c4ccc5ccccc5c4)cc3)[nH]c3ccccc23)NC(=O)[C@@H](C)NC1=O | Mycobacterium marinum |  |  |  |  | MIC90 | > 100 µM |
| FC(F)(F)c1cccc(CNc2nc(NC3CCN(Cc4ccccc4)CC3)c3nc[nH]c3n2)c1 | Cryptococcus neoformans | RNA-seq, measured: CNAG_03821 |  | 48 µg/mL, 3 h | reference: untreated | mRNA fold change | 1.01 |
| CC[C@H](C)[C@@H]1NC(=O)[C@@H](CCCNC(=N)N)NC(=O)[C@@H](NC(=O)[C@@H](CC(C)C)NC(=O)[C@H](C)NC(=O)[C@H](C)NC(=O)[C@@H]2CCCN2C(=O)[C@@H](CC(C)C)NC(=O)[C@@H](NC(=O)[C@@H](CCCNC(=N)N)NC(=O)[C@@H](CC(C)C)NC(=O)[C@@H](CC(C)C)NC(=O)[C@@H](NC(=O)[C@@H](CCCNC(=N)N)NC(=O)[C@@H](CC(C)C)NC(=O)[C@@H](NC(=O)[C@@H](NC(=O)CNC(=O)[C@@H](CC(C)C)NC(=O)[C@@H](N)Cc2ccccc2)[C@@H](C)O)C(C)C)C(C)C)C(C)C)CSSC[C@@H](C(=O)O)NC(=O)[C@@H](CCCNC(=N)N)NC(=O)[C@@H](CCCNC(=N)N)NC(=O)[C@H](Cc2ccccc2)NC1=O | Staphylococcus aureus MRSA NCTC 12493 |  | Galleria mellonella larvae | 8 mg/kg, titanium implant biofilm infection |  | survival | 60% |
| CCOC(=O)C1(Cc2cccc(C)c2)Oc2cc(F)ccc2N(Cc2cccc(C)c2)C1=O (stereo not drawn) | Setaria viridis | fresh weight, greenhouse postemergence |  | postemergence, 150 g ai/ha, 21 days |  | inhibition | 37.4 ± 1.07% |
| CC(C)[C@H]1NC(=O)[C@H](Cc2ccc(O)cc2)NC(=O)[C@@H](C(C)C)NC(=O)[C@@H](C)NC(=O)[C@H](CO)NC(=O)[C@H](Cc2c(-c3ccc(-c4ccc5ccccc5c4)cc3)[nH]c3ccccc23)NC(=O)[C@@H](CO)NC1=O | Mycobacterium marinum |  |  |  |  | MIC90 | 100 µM |
| CC(=O)CCC1C(=O)NC(C(C)C)C(=O)NC(Cc2cc(O)cc(F)c2)C(=O)N2CCCC(N2)C(=O)OC(C(C)=CC=CC(=O)N2CCCCO2)CC=CC=CC(O)C(C)C1O (stereo not drawn) | Hepatitis C virus | viral replication | Huh7, Con1 replicon | 20% human serum |  | EC50 | 0.014 ± 0.001 µM |
| CC(C)C[C@H](NC(=O)[C@@H](N)CO)C(=O)N[C@@H](Cc1c[nH]c2ccccc12)C(=O)N[C@@H](CCC(=O)O)C(=O)N[C@@H](CC(N)=O)C(=O)N[C@@H](Cc1ccccc1)C(=O)N[C@@H](CCCCN)C(N)=O | Gram-negative bacteria |  |  |  |  | geometric mean MIC | 256 µM |
| CCCCCCCCCCCC(=O)C(C)C(=O)N1CCC[C@H]1C(=O)NC(C)(C)C(=O)NC(C)(C)C(=O)NC(C)(C)C(=O)N[C@](C)(CC)C(=O)NCCC(=O)N[C@@H](C)C(=O)N[C@](C)(CC)C(=O)N[C@@H](C)C(=O)N[C@@H](CC(C)C)C(=O)N[C@](C)(CC)C(=O)NCCC(=O)N[C@@H](C)C(=O)N[C@](C)(CC)C(=O)NCCC(=O)N[C@@H](C)C(=O)NC(C)(C)C(=O)NC(C)(C)C(=O)NC(C)(C)C(=O)N[C@@H](C)C(=O)N[C@@H](CC(=O)O)C(=O)O (stereo partly drawn) | Cryptococcus neoformans | calcofluor white microscopy | H99 | half MIC, 4 h, 30 °C, YPD medium | reference: DMSO vehicle, higher = more chitin | chitin level (calcofluor fluorescence) | 0.0574 a.u. and 0.0573 a.u. |
| CC(C)[C@H]1NC(=O)[C@H](Cc2ccccc2)NC(=O)[C@@H](C(C)C)NC(=O)[C@@H](C)NC(=O)[C@H](C)NC(=O)[C@@H](Cc2c(-c3ccc(-c4ccc5ccccc5c4)cc3)[nH]c3ccccc23)NC(=O)[C@@H](CO)NC1=O | Mycobacterium marinum |  |  |  |  | MIC90 | 41.5 µM |
| O=C1NC2(CC2)COc2ncc(F)cc2[C@H]2COCCN2c2ccn3ncc1c3n2 |  |  | Sprague-Dawley rat, male, blood | oral, 10 mg/kg/day, 4 weeks, end of treatment, subacute toxicity |  | lymphocyte percentage | 72.3 ± 13.3% |
| CCN1CCN(Cc2ccc(CNc3nc(N(C)C)nc(N(C)C)c3/N=N/c3ccc(Cl)cc3)cc2)CC1 | Ostrinia furnacalis | leaf dipping |  | 200 mg/L, 96 h |  | mortality | 86.7 ± 5.8% |
| CC(C)C[C@H](NC(=O)[C@H](CCN)NC(=O)[C@H](CCN)NC(=O)[C@@H](Cc1ccccc1)NC(=O)[C@H](CC(C)C)NC(=O)[C@H](CCN)NC(=O)[C@H](CCN)NC(=O)[C@@H](CCN)NC(=O)[C@@H](N)CS)C(N)=O | Acinetobacter calcoaceticus | BHI agar spot plating |  | 24 h, 37 °C |  | MBC | 64 µM (≈ 63.6 µg/mL) |
| CCOC(=O)C1(Cc2ccc(-c3ccccc3)cc2)Oc2cc(F)ccc2N(Cc2ccc(-c3ccccc3)cc2)C1=O (stereo not drawn) | Setaria viridis | fresh weight, greenhouse postemergence |  | postemergence, 150 g ai/ha, 21 days |  | inhibition | 51.8 ± 2.08% |
| Cc1cc(C(=O)Nc2nc3cccc(C)c3n2[C@H]2CCCCN(C(=O)/C=C/CN(C)C)C2)ccn1 | Trypanosoma brucei |  | STIB795, mouse acute HAT model | oral, 7.5 mg/kg once daily for 4 days, day 5 | reference: mice | survival | 83.3% |
| CC[C@H](C)[C@@H]1NC(=O)[C@H](CO)NC(=O)[C@H](CCCCN)NC(=O)[C@@H]2CSSC[C@@H](C(=O)N[C@@H](Cc3ccc(O)cc3)C(N)=O)NC(=O)[C@H](CCCCN)NC(=O)[C@@H]3CSSC[C@H](NC(=O)[C@H](CCCNC(=N)N)NC(=O)[C@H](CC(C)C)NC(=O)[C@H](CC(=O)O)NC(=O)[C@H](CC(=O)O)NC(=O)[C@H](CCC(=O)O)NC(=O)[C@H](CC(N)=O)NC(=O)[C@H](Cc4c[nH]c5ccccc45)NC(=O)C(C)(CC)NC(=O)CNC(=O)[C@H](CC(N)=O)NC(=O)[C@@H](NC(=O)CNC(=O)[C@H](Cc4ccccc4)NC(=O)CN)CSSC[C@H](NC(=O)[C@H](Cc4ccc(O)cc4)NC(=O)CNC(=O)CNC(=O)[C@H](CCCCN)NC(=O)[C@H](Cc4ccc(O)cc4)NC(=O)[C@H]4CCCN4C(=O)[C@@H]4CCCN4C1=O)C(=O)N[C@@H](C)C(=O)N[C@@H](CCCCN)C(=O)N1CCC[C@@H]1C(=O)NCC(=O)N[C@@H](Cc1ccccc1)C(=O)N[C@@H](C(C)C)C(=O)N3)C(=O)N[C@@H](Cc1c[nH]cn1)C(=O)N[C@@H](CC(N)=O)C(=O)N[C@@H](Cc1c[nH]cn1)C(=O)N2 (stereo partly drawn) | Streptococcus pneumoniae |  | 19F | 24 h |  | MBC | 0.5 µM (≈ 2.23 µg/mL) |
| CN1CCCCC1C(=O)NC(Cc1ccc(-c2ccccc2)cc1)B(O)O (stereo not drawn) | Plasmodium vivax | ex vivo | Brazilian field isolates | range limit |  | IC50 | 0.007 to 0.068 µM |
| CC1(C)C(NC(=O)C(=NOC2(C(=O)O)CC2)c2csc(N)n2)C(=O)N1OS(=O)(=O)O (stereo not drawn) | Klebsiella pneumoniae |  | ATCC BAA-2146, NDM-1, ICR mice, systemic lethal infection | intravenous, 16 mg/kg, 7 days |  | survival rate | 20% |
| CN(C(=O)c1ccn2ncc(-c3ccc(C(N)=O)cc3)c2c1)c1ccc(C#N)cn1 | Cryptosporidium parvum |  | UGA1 Nluc, IFN-gamma knockout C57BL/6 mice, faeces | oral, 10 mg/kg daily, 168 h post infection, treatment days 3-9 | higher means more parasites | faecal Nluc luminescence | 62 a.u. and 35 a.u. and 15 a.u. and 21 a.u. and 11 a.u. |
| O=C(c1cccc(-c2ccc3ncnc(Nc4ccc(OCc5cccc(F)c5)c(Cl)c4)c3c2)c1)N1CCCC1 | Trypanosoma cruzi | intracellular amastigote growth | NIH 3T3, Tulahuen, β-galactosidase-expressing | 10 µM, 96 h |  | inhibition | 7% |
| C[N+]1=C2C(c3ccc(Cl)cc3)=[N+]([O-])c3ccccc3N2CCC1 | Clostridioides difficile | microbial growth |  |  |  | MIC90 | 32 µg/mL |
| CC[C@H](C)CCCCC(=O)N[C@@H](CCN)C(=O)N[C@H](C(=O)N[C@@H](CCN)C(=O)N[C@H]1CCNC(=O)[C@H]([C@@H](C)O)NC(=O)[C@H](CCN)NC(=O)[C@H](CCN)NC(=O)[C@H](CC(C)C)NC(=O)[C@@H](CC(C)C)NC(=O)[C@H](CCN)NC1=O)[C@@H](C)O | Escherichia coli | daily serial passaging | ATCC 8739 | highest sub-MIC, 6 days | reference: initial MIC | MIC fold change | 2.47 |
| COc1ccc(CCNC2CCCc3c2[nH]c2ccc(C)cc32)cc1 (stereo not drawn) | Streptococcus pneumoniae |  |  | concentration not given, 10% fetal bovine serum | reference: without serum | MIC fold change | 4 |

Excerpt of the above:
| SMILES | target or system | assay | test system | setting | scale | endpoint | result |
| --- | --- | --- | --- | --- | --- | --- | --- |
| CC[C@H](C)CCCCC(=O)N[C@@H](CCN)C(=O)N[C@H](C(=O)N[C@@H](CCN)C(=O)N[C@H]1CCNC(=O)[C@H]([C@@H](C)O)NC(=O)[C@H](CCN)NC(=O)[C@H](CCN)NC(=O)[C@H](CC(C)C)NC(=O)[C@@H](CC(C)C)NC(=O)[C@H](CCN)NC1=O)[C@@H](C)O | Escherichia coli | daily serial passaging | ATCC 8739 | highest sub-MIC, 6 days | reference: initial MIC | MIC fold change | 2.47 |
| COc1ccc(CCNC2CCCc3c2[nH]c2ccc(C)cc32)cc1 (stereo not drawn) | Streptococcus pneumoniae |  |  | concentration not given, 10% fetal bovine serum | reference: without serum | MIC fold change | 4 |
